{"data": "Published values from different studies", "note": "Parts stem from different laboratories: compare values within a part only."}
{"data": "Study 1", "target": "Hepatocyte nuclear factor 3-alpha (Foxa1, Mus musculus, UniProt P35582, residues 1-468, full length assumed)", "method": "EMSA with sequencing", "form": "double-stranded DNA, one strand shown", "matrix": "in vitro", "concentration": "10 and 20 nM", "setting": "whole designed probe, mean of two concentrations, ends assumed", "relative to": "negative control set to 0", "direction": "higher = stronger binding", "shared flanks, not repeated": "GTGAGCGGTGCCCATTGATGGGGAAC … TTTCACTGGGATCGTGGGGAC", "Target sequence (chain)": "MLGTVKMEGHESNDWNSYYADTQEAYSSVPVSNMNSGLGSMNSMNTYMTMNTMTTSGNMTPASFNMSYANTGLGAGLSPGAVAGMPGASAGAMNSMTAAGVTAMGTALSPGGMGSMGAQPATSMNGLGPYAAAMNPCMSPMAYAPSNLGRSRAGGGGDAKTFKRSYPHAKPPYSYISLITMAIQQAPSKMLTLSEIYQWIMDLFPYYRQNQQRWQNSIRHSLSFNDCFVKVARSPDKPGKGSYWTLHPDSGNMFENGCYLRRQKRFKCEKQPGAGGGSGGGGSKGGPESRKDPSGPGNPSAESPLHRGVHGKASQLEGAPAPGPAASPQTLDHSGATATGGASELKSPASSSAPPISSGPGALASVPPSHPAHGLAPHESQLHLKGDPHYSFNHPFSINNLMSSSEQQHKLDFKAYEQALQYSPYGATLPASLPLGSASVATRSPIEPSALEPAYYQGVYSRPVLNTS"}
{"Sequence": "TTTCCAGCCCTTAGTTTCTGGCATTTAACCTGACTCTGGTCCCTGAATGGCATGGGAGTGCTTTCAACCACAGGTTTCCACATTCATGCAAAAGCAAACAAGTGTGATCTACAGAGATCTCTGACTCATTCTTATTTGCTTTGTGTTTCCAATGGAGAAAGAGCTTGGGAAGGGAGGATCCTAATTGTCTAAA", "normalised bound fraction": "0.549 ratio"}
{"Sequence": "GTTGCCATAGCTCTGCTGAATGATCATTTGTTGGATTCCATGAATCTCAAAAAAATGAAAGGATCTCTCTTTAGGTGTGTCTGGGGCTATCAAAGTAAACAAGTCAGATGAATTATTGATAGGCTTTGGATCAATGAAATGCCACTGGAATGACAAATGATAAGCACAGTAAAACTGTCACAATCCTTATTCC", "normalised bound fraction": "0.416 ratio"}
{"Sequence": "CTCAGCAAGGCTTTAAGGTCCTTAAAACATGACCCACACTAACCAGCCTTAGGTTTCCACTGTCTCATAGCTCAGTTTCCACCAAAATGGGGATATTTACCCAGAGATCTGTGCTCAGTTGGCTCTCTGCTTCTTGACTAGCTTCATTTACTGCCCATTGAAATTCTAACCCCAGGTCAAAAGCCATCTTTTC", "normalised bound fraction": "0.00884 ratio"}
{"Sequence": "CCGTTAGCCATTTCTACAGTAAATGGTATCTGAAATTTTGTTATTTGAAAGAATTTTCTTGCCAAAACATGGAAATACGCAATATTTTGGCATATTGACTTTGTATACGGGAACTTATTTTTTTAATTTTTTTATTTTTTTTGAGGCAGAGTCTCACTCTGTTGCCCAGGCTGGAGTGCAGTGGCACAGTGT", "normalised bound fraction": "0.292 ratio"}
{"Sequence": "ATCTTCCCCCTCTTCCTTGCCCCACCAGCTCACCTTCCCGGGTTATTTGCACAAAGGAAAATAAATAAAGCCGGCATTCGTTAACCCTCTTCTGGCGCAAACTGCTGTTTGCTCTGCATCTAACATGGTCCTTACGCGACGCCAGGCTCCGGGAGAGCAAAGCACCGTGTCAGGCGCATGATCCGGGCTCGCC", "normalised bound fraction": "0.378 ratio"}
{"data": "Study 2", "target": "Sal-like protein 4, full length isoform A (SALL4, Homo sapiens, UniProt Q9UJQ4, residues 1-1053)", "method": "universal PBM", "form": "double-stranded DNA, one strand shown", "matrix": "in vitro", "concentration": "600 nM", "setting": "8-mer, flanks averaged, mean of replicates", "direction": "higher = stronger binding", "UniProt Q9UJQ4, sequence (whole entry, looked up)": "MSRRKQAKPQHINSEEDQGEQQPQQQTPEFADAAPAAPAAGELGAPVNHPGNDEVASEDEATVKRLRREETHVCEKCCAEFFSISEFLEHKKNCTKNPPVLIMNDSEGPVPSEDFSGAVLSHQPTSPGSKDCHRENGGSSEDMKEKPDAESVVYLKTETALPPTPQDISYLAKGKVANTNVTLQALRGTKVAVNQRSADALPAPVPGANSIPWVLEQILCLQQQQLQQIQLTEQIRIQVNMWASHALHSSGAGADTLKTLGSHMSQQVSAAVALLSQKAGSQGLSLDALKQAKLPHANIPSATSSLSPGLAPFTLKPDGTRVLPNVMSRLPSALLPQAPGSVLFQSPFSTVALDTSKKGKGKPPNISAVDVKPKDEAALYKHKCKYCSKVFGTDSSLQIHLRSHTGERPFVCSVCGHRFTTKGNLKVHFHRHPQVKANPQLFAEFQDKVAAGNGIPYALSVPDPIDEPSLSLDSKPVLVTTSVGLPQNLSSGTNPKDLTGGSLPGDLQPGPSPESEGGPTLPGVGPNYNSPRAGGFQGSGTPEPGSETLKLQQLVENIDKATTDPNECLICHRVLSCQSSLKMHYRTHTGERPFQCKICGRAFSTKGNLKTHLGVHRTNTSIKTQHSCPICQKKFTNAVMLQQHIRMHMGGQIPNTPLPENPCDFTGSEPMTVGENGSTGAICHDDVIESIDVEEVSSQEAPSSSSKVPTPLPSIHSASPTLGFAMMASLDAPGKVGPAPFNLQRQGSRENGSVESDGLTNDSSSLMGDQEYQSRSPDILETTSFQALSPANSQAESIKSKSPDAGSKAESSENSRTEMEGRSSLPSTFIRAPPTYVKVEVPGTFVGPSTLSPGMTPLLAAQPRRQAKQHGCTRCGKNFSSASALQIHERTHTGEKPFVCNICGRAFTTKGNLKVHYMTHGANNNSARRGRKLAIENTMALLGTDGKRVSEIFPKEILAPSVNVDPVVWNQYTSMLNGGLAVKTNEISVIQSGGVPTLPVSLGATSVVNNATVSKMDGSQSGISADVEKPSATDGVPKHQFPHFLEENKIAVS"}
{"Sequence": "AAGCCATT", "E-score": 0.156}
{"Sequence": "CCATAGTC", "E-score": 0.0239}
{"Sequence": "TAGGAGCA", "E-score": 0.0391}
{"Sequence": "CCAGGTTC", "E-score": -0.295}
{"Sequence": "AAGGGTGC", "E-score": -0.202}
{"Sequence": "CTGGTCTC", "E-score": -0.257}
{"Sequence": "ACCAACTC", "E-score": -0.112}
{"Sequence": "AAAGTAGG", "E-score": 0.132}
{"data": "Study 3", "target": "Runt-related transcription factor 3, Runt domain (RUNX3, Homo sapiens, UniProt Q13761, residues 53-186)", "method": "protein-binding microarray", "form": "hairpin DNA", "matrix": "in vitro", "concentration": "not given", "setting": "whole hairpin DNA, median over replicate spots", "relative to": "not given", "direction": "higher = stronger binding", "UniProt Q13761, sequence (53-186, looked up)": "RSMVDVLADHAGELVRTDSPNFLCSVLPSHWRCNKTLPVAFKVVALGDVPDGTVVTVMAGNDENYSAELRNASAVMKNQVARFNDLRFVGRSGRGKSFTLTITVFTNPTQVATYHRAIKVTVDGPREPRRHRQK"}
{"Sequence": "GAGGCCAGTCGCGGTTGGCCTCCTGGCCAACCGCGACTGGCCTCACACTC", "median fluorescence [a.u.]": 5770}
{"Sequence": "GAGGCCTGTCGTGGTTGGCCTCCTGGCCAACCACGACAGGCCTCACACTC (5mC at 34)", "median fluorescence [a.u.]": 5300}
{"Sequence": "GAGGCCTGTTGTGCGTGGCCTCCTGGCCACGCACAACAGGCCTCACACTC (5mC at 30)", "median fluorescence [a.u.]": 4570}
{"Sequence": "CTCAGTTCTGTGGGCTCGACTCCTGTCGAGCCCACAGAACTGAGACACTC", "median fluorescence [a.u.]": 4150}
{"Sequence": "CTCAGGTCTGTGGGCTGGACTCCTGTCCAGCCCACAGACCTGAGACACTC", "median fluorescence [a.u.]": 4380}
{"Sequence": "GAGGCCTCTTGTGGTTGGCCTCCTGGCCAACCACAAGAGGCCTCACACTC (5mC at 8)", "median fluorescence [a.u.]": 5130}
{"Sequence": "GAGGCCTGCGGCGGTTGGCCTCCTGGCCAACCGCCGCAGGCCTCACACTC (5mC at 9 35)", "median fluorescence [a.u.]": 6510}
{"Sequence": "GAGGCCCGTCGCGGTTGGCCTCCTGGCCAACCGCGACGGGCCTCACACTC", "median fluorescence [a.u.]": 6080}
{"data": "Mixed results"}
{"Structure (SMILES)": "N#Cc1ccccc1-c1nc2cc(Cl)ccc2c2ccnn12", "test system": "human, microsomes or S9", "conditions": "2 µM, 0.5 h", "endpoint": "remaining compound", "value": "75.9%"}
{"note": "Some of these lines once more (study 3):"}
{"Sequence": "GAGGCCTCTTGTGGTTGGCCTCCTGGCCAACCACAAGAGGCCTCACACTC (5mC at 8)", "median fluorescence [a.u.]": 5130}
{"Sequence": "GAGGCCTGTTGTGCGTGGCCTCCTGGCCACGCACAACAGGCCTCACACTC (5mC at 30)", "median fluorescence [a.u.]": 4570}
{"Sequence": "GAGGCCCGTCGCGGTTGGCCTCCTGGCCAACCGCGACGGGCCTCACACTC", "median fluorescence [a.u.]": 6080}
